Measurements pooled from the literature.
Parts stem from different laboratories: compare values within a part only.

Block 1
Target: Histone acetyltransferase KAT6A, winged helix 2, GST fusion (KAT6A, Homo sapiens, UniProt Q92794, residues 85-181)
Method: protein binding microarray
Form: double-stranded DNA, one strand shown
Sample: in vitro
Tested at: not given
Setting: 8-mer, flanks averaged, mean of 2 arrays, mostly near background
Relative to: not given
Direction: higher = stronger binding
Construct (chain): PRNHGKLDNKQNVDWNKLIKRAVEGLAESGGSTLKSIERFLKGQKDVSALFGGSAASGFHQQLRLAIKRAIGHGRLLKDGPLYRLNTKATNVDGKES
Oligonucleotide | E-score
AAGAGTAG | -0.11
GAGGGTCA | -0.053
TACTGTGA | -0.0962
CCCCTGGC | 0.222
AATGTTAC | -0.162

Block 2
Target: Sal-like protein 4, full length isoform A (SALL4, Homo sapiens, UniProt Q9UJQ4, residues 1-1053)
Sequence of UniProt Q9UJQ4 (whole entry, looked up): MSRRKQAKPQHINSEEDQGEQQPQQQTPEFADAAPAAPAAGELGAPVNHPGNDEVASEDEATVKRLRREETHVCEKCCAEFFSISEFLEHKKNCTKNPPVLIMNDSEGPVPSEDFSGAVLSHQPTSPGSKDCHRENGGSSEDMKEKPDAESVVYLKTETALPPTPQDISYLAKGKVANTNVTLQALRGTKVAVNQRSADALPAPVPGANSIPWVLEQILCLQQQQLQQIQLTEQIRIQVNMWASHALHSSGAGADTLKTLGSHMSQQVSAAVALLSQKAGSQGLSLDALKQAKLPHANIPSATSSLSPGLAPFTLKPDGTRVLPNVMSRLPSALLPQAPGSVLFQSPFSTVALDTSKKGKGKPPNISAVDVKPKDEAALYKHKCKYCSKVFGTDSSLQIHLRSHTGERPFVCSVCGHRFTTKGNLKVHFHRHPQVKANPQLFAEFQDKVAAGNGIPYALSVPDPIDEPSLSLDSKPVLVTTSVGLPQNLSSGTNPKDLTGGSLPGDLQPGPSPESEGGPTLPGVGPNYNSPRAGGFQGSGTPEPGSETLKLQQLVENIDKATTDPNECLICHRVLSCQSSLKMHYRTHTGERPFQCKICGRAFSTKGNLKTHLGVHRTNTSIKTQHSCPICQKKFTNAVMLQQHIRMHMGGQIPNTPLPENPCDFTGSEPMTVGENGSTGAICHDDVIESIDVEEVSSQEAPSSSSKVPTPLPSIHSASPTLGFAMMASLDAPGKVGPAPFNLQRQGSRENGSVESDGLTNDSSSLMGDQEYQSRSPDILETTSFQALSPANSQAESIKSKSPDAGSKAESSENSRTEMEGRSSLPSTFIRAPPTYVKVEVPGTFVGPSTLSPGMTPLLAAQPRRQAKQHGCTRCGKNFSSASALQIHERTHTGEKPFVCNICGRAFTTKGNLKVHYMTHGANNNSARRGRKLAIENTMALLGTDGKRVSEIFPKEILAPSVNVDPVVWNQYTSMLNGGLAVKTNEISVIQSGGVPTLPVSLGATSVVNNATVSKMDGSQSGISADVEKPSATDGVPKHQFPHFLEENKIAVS
Method: universal PBM
Form: double-stranded DNA, one strand shown
Sample: in vitro
Tested at: 600 nM
Setting: 8-mer, flanks averaged, mean of replicates
Direction: higher = stronger binding
Oligonucleotide | E-score
GTCCTGTA | 0.00165
GATGCAGC | -0.0798
AAGAATCG | 0.073
GTCCGATA | 0.0219

Block 3
Target: Interferon regulatory factor 5, full length, phosphomimetic (IRF5, Homo sapiens, UniProt Q13568-2, residues 1-514, K96S/S451D/S453D/S456D/S462D)
Method: protein-binding microarray
Form: double-stranded DNA, one strand shown
Sample: in vitro
Tested at: 250 nM
Setting: 60-bp whole probe
Together with: salmon DNA 0.4 mg/ml
Relative to: random background probes
Direction: higher = stronger binding
Oligonucleotide | log fluorescence [z-score]
GCCTAGCACATAGGTCTCGGTCTCGGTTAGTGCTAGGTCTTGATTCGCTTGACGCTGCTG | 0.896
GCCTAGCACGACGGACTGGCTCTCGGGACGTGCTAGGTCTTGATTCGCTTGACGCTGCTG | -0.634
GCCTAGCACTTAGGACTGGGGACTGGGTTGGTGCTAGTCTTGATTCGCTTGACGCTGCTG | -0.54
GCCTAGCACGACGGTTACCTTCTCCTGACGTGCTAGGTCTTGATTCGCTTGACGCTGCTG | 0.314

Further values, each from its own experiment
Substance | target | assay | test system | conditions | how to read | measurement | result
PhoQ, residues 284 288 289 292 302 303 TTSMTC | PhoP, residues 12 14 15 18 19 LHTVM (Escherichia coli, UniProt P23836) | Sort-seq, refers to: YFP reporter | E. coli | PhoQ-PhoP variant library, together with: 10 µM Mg2+ | relative to: high Mg2+ state, higher = stronger signaling | fold induction | 17.4

Excerpt of the above (block 1):
Oligonucleotide | E-score
AATGTTAC | -0.162
AAGAGTAG | -0.11
